# Published values pooled from the literature.
# Every numbered part comes from another study and shows a few of its results, in no order. Positions count from the first letter of the parent shown.

# Series 1
# Target: CCNE1, cyclin fold, Cln2 fusion (human)
# Method: yeast growth competition, sequencing
# Sample: yeast
# Setting: strong parent motif
# Reference: not given
# Direction: higher = stronger binding
# Parent: PKN2 docking peptide (human); VSAVRKLDFSDTM
Change,normalised enrichment score
T12C,5.36
S2E,3.4
A3T,4.17
D11W,4.6
A3F,4.45
K6E,2.39
K6Q,5.09
S10H,4.74
T12G,5
K6N,1.81
D11H,4.21
K6R,5.94

# Series 2
# Target: Histone acetyltransferase KAT6A, both winged helices, GST fusion (KAT6A, Homo sapiens, UniProt Q92794, residues 1-181)
# Method: protein binding microarray
# Form: double-stranded DNA, one strand shown
# Sample: in vitro
# Concentration: not given
# Setting: 8-mer, flanks averaged, mean of 2 arrays, mostly near background
# Reference: not given
# Direction: higher = stronger binding
# Target sequence (chain): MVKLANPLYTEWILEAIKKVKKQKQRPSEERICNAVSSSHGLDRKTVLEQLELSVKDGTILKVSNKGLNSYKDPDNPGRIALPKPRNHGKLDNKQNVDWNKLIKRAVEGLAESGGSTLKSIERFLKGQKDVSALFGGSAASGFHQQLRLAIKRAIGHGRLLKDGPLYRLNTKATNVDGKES
Strand,E-score
ATCGCTAA,-0.00102
ACCACCCA,-0.236
TAGAAACA,-0.0632
AAACGACA,-0.0408
CGCGGCTA,0.383
ACCGATAC,0.0796
TATGACCA,-0.0777
CCAGGAGG,-0.106
GGGTTTCA,0.135
CGCCCCTC,0.104
CTGGTTTC,0.016
AGTCGATA,-0.183
GTAATCCA,-0.103
AGATCCTC,-0.0894
CACCGCAG,-0.0079
ACTCGAGG,-0.0773

# Series 3
# Target: RNA binding protein fox-1 homolog 2, RRM domain, GST-SBP tag (RBFOX2, Homo sapiens, UniProt O43251-10, residues 100-194)
# Method: RNA Bind-n-Seq
# Form: RNA
# Sample: in vitro
# Concentration: 365 nM
# Setting: natural RNA segment, single round, ends assumed
# Reference: no-protein control
# Direction: higher = stronger binding
# All sequences stand within: GGGAGUUCUACAGUCCGACGAUC … UGGAAUUCUCGGGUGCCAA
# Residues (chain): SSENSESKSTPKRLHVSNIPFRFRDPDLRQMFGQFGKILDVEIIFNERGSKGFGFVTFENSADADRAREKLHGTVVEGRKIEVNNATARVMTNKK
Strand,RBNS enrichment (R)
UAAACCAGACUCACUUUUCUGAAAAAUCUCCAUUGUUGAGGAGAGGCUGCUCAAUCGACACCCCGAGUUCUCAUGACUGGGAAGAUAGUUUUCUUCAGGUGUCAAUGGCG,0.625
CCGAUUCCUGCCUGCCCGCUUUGAGAGACCCGGUCACUUGCUUGUGGGCCCUCCCACUUGCCUCUGCCACCUCCCCUCAUAGCUAUUCCUGGCUUGCUGUCUGCAAGGCC,0.431
ACUGAGGGGUCUGUAGGUUUGACUAAAAUAAUAAAUGCUAGGCGUGUUUGAUGCGCUUUUAACUUUGGCAUUGAGUCUCCCGUUCUUGUUUUUAAUGGUGCAAUGAUCAU,0.619
CUCUUCUGUACCUCUCUUCUCUUAGAGAAAAAAAUGCCUUCCUUGCUUUGUAUCAUACCCAAUAUUUAAGGACAAUUUGUCACUCAGAGGACUUUAGAGUUAUAUUCCAA,0.514
AAAGGAAAAGAACACUAGCUAAGGAAGGGAAAGGGAAGUGAUAUCAUAAAAGUAGCAACCUUCAUUUUACAUUCUGUCUGUUUUUCUUUUUUUGCUUUGUUUUGUUUGUG,0.328
AUUUUUGUUUCAUUGUUUAAAAGUACUGAAAUGUUCCACCCUGUUAUGUUUUCCUGUACUAGAUGGCUAGGAUUCCAGAGAAUUACUAUAAAGUAUUUUCAACACACCUG,0.352
CACUCUGGCCACAGGUGACACUUGGUCCUUGCUGCCACCUGCUUGGGGCUAUGUGGCUACGGCUACACAAAAGCCUGUGCAGGUUAGAAGACGACUGUGGUGUGCAGUGG,0.405
GAAAGGCCAUCUUCCCACUGUCCUGCCAGCAGCUGUUCUGGGUAGCAGCAAUUGCAGAGUGACCAGUGAACUUUAUGGACUUAGCUGACAACUCCUAGAACAUGUGCACC,0.261
GCCUUCCUUUUCUAGGGCCAAACUCCUCUCCAAAUACUAGGUUGGGUUCAUUUAUCUUUUAAGGAGUUUUACUUUUCUCUCCAGAGGGACCAGGUCUUCUUAUGCAGUGA,0.6
AUAGUAUUGUGAAAGUUCUGAGACCUUCCCUGGCUCAGGACCUCUGAGUUUCCUUCCCCCUCCCCCCAAUUCAAACCAGGCAGUUUUUUUGGAAGCCAGGUUUCCUUACA,0.557
GAAACUGAGCUGGGACUGGAAAGGACAGCCCUUGACCUGGGUUCUGGGUAUAAUUUGCACUUUUGAGACUGGUAGCUAACCAUCUUAUGAGUGCCAAUGUGUCAUUUAGU,0.212
UGAGGUGACUUGUAAAGAUUUUGUUAAGCUCAGGAUUUUUAAUAACACAGUUCACAAAACAGUACAAGGCAGUAUGACGAGAACUCAUCUUUGCUAACCUCAGCAGUUAC,0.355

# Single results of other studies
Substance,target,test,system,setting,scale,quantity,value
"PhoQ, residues 284 288 289 292 302 303 TNASYF","PhoP, residues 12 14 15 18 19 NHFIF (Escherichia coli, UniProt P23836)","Sort-seq, refers to: YFP reporter",E. coli,"PhoQ-PhoP variant library, together with: 10 µM Mg2+","reference: high Mg2+ state, higher = stronger signaling",fold induction,12.4

# Excerpt of the above (series 2):
Strand,E-score
TATGACCA,-0.0777
CCAGGAGG,-0.106
GGGTTTCA,0.135
